Literature values as cited in several papers.
Compare with care: the assays were run in different laboratories. Numbers after ± are the reported error.

Chains of the proteins cited; added tags and fusions are not shown. Residues count along the entry.
UniProt P29476, whole entry: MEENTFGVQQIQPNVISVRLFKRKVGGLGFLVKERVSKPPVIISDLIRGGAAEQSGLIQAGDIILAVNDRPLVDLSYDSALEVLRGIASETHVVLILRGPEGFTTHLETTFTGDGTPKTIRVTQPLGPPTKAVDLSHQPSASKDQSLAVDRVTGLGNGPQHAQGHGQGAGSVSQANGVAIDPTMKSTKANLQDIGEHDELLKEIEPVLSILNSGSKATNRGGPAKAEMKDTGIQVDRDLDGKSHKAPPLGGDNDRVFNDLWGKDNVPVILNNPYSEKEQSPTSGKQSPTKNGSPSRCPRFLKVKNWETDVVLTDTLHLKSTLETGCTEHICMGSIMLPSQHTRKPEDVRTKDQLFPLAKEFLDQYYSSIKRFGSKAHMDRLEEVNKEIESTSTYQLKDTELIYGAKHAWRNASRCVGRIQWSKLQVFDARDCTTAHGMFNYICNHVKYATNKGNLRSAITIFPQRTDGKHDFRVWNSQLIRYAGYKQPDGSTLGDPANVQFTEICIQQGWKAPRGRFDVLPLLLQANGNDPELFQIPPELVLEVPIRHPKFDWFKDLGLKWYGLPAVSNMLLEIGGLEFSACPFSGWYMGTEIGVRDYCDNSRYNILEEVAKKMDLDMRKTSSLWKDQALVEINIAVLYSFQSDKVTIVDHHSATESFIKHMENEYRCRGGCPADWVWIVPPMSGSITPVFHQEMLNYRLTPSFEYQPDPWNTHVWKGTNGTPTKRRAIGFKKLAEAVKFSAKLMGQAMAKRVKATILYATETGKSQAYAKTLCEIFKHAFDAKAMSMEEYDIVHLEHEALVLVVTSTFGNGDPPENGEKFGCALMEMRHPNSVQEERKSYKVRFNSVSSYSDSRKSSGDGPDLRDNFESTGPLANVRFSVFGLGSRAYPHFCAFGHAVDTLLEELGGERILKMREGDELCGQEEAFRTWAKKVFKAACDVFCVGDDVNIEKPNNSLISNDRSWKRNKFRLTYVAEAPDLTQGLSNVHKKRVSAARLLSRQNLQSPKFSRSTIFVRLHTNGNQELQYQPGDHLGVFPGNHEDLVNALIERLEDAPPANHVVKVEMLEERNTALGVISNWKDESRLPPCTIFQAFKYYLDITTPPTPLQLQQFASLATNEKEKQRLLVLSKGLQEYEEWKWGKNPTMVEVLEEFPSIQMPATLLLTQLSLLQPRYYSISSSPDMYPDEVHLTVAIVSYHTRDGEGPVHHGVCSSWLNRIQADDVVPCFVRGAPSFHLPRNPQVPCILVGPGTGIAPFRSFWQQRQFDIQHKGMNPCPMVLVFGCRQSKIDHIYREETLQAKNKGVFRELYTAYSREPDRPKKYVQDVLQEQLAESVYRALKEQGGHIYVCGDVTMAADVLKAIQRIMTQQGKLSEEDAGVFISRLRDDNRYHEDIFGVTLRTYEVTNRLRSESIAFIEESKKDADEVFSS
UniProt P19256, 29-250 limits assumed: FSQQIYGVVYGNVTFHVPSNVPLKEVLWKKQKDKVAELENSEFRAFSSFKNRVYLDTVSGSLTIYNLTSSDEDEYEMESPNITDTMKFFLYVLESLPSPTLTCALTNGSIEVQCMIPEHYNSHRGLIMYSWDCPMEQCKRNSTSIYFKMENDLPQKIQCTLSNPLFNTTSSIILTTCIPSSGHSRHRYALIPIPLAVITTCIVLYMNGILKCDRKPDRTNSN

SMILES	target or system	assay	system	conditions	how to read	measurement	result
COc1cc(N2CCC(N3CCN(C)CC3)CC2)ccc1Nc1ncc(Cl)c(Nc2ccccc2NS(C)(=O)=O)n1	Ba/F3 EGFR Del19/C797S	cell growth, inhibitor				IC50	42 nM
Cc1cc(N)nc(CCc2cccc(C(O)Cc3cc(C)cc(N)n3)c2)c1 (centres unmarked)	Nos1 (Rattus norvegicus, UniProt P29476)				reference: Ki murine iNOS over Ki nNOS	selectivity ratio	58
O=C(/C=C/c1nc2ccccc2[nH]1)c1c(-c2ccccc2)c2cc(Cl)ccc2[nH]c1=O		tumour growth inhibition	mouse melanoma xenograft			lowest effective dose	0.5 mg/kg
O=C(Nc1ccc(-c2nc3ccccc3s2)cc1)C1CCN(S(=O)(=O)c2ccccc2Cl)CC1			human liver microsomes			half-life	18.1 min
C[C@@H]1NC(=O)[C@@H]2CSSC[C@H](NC(=O)[C@H](CC(=O)O)NC(=O)[C@H](CC(=O)O)NC(=O)CNC(=O)[C@H](CC(=O)O)NC(=O)[C@H](Cc3ccc(O)cc3)NC1=O)C(=O)N[C@@H](CCCCN)C(=O)N[C@@H](CO)C(=O)N[C@@H](C)C(=O)N1CCC[C@H]1C(=O)N1CCC[C@H]1C(=O)N[C@@H](CO)C(=O)N2	Lymphocyte function-associated antigen 3, with CD2 (CD58, Homo sapiens, UniProt P19256)	lymphocyte adhesion, inhibitor	Jurkat on OVCAR-3 cells			IC50	23 ± 46 nM
O=C1CN=C(c2ccccc2Cl)c2cc([N+](=O)[O-])ccc2N1			rat lithium-pilocarpine status epilepticus	40 mg/kg, 30 min after SE onset		convulsive seizure suppression	no effect
CCCCCCCC(=O)OC[C@H](COP(=O)(O)O[C@H]1[C@H](O)[C@@H](OP(=O)(O)O)[C@H](OP(=O)(O)O)[C@@H](OP(=O)(O)O)[C@H]1O)OC(=O)CCCCCCC	PBD1	SPR				Kd	96 nM
C=CC(=O)Nc1cc(-c2nn(C3CCC(N4CCN(C(C)=O)CC4)CC3)c3ncnc(N)c23)ccc1Oc1ccccc1 (centres unmarked)	HER3-dependent cancer cell lines	cell growth				EC50	> 10000 nM
